Measured values gathered from unrelated publications.
Numbered parts are unrelated; each lists some results of a single study.

Sample 1
Target: RING finger protein unkempt homolog, zinc fingers 1-6, GST-SBP tag (UNK, Homo sapiens, UniProt Q9C0B0, residues 30-357)
Method: RNA Bind-n-Seq
Form: RNA
Medium: in vitro
Concentration: not given
Notes: RNA with constant flanks, human-mouse chimeric sites, ends assumed
Baseline: input RNA pool
Reading: higher = stronger binding
Construct (chain): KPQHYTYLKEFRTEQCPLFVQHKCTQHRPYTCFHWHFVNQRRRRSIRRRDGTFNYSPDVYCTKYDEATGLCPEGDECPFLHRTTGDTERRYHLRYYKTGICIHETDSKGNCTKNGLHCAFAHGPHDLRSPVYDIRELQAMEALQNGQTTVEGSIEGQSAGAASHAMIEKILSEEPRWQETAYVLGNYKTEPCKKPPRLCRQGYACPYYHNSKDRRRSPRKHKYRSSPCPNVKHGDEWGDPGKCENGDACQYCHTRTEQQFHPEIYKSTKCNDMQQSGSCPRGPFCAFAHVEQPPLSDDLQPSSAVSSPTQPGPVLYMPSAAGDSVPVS
The bound/input enrichment of `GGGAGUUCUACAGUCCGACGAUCGCAUAUGGUUAUCGAGGAAAGGACUGUAGAGCGAAUGUAUACCUGCUUCCCACAGGGAAAAUAGUUUAUUUUAUCGCCUCAGUGGUAGUCCUGUUUAAUUAUGAGGAGAGGACUCAGCGACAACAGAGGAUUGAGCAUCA` is reported as 20.8 ratio.
`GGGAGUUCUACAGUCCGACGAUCGGACAUCUGUCAAAUUGUUAUGUUCCUGUGAAACAAGUGAACACUCUGAUACACUUCAUCUGCUUGUACAUUUAACUGAUAGAGAAAUGUAAAUAUGUUAAUCCAAGCAAUGUGUCACUUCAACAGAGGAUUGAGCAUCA` has a bound/input enrichment of 0.343 ratio.
For `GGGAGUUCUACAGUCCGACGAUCUUCAAAGAAAAGGGCAGCUGUGUCAUUUCAUAAGUAACUCUGGGGGAGGGAAAUUCUGUUCUUUUGUUUAAUUUUCCCCCAGAUAAAGCCAAAGUGUGUGUUGAAGAACUGAGAAAAAAUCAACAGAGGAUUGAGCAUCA`, the bound/input enrichment was 0.183 ratio.
For `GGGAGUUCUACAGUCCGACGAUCGAGUCGAGCAAACUUGAAACAAUUCGUUAUCUUGCAGCCUCAGUGUUCACUUGCUUGGCGAUAGCAUUGGGGUUUUAUAGGUUCUGGGGAAGUAGUAGACGAUGAUGUCCUGCUGUGUGCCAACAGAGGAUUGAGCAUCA`, the bound/input enrichment was 0.718 ratio.
For `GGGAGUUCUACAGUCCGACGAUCGGACAUCUGUCAAAUUGUUAUGUUCCUGUGAAACAAGUGAACACUCUGAUACACUUCAUUUAGUUGUACAUCUGUAUGAUAGAGAAAUGUAAAUAUGAAUAUAUUUACAAUGUGUCACUUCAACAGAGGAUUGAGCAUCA`, the bound/input enrichment was 0.147 ratio.
With `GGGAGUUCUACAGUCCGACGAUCCACACACUCUUCUGCGGCACCCUCAUUUUGCAGGCCCGGGCCUAUGUGGGACCGCACGUGCUAGCAGUGGUGACCCGCACAGGGUUCUGCACGGCAAAAGGGGGCCUGGUGAGCUCCAUCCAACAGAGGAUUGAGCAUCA` the bound/input enrichment was 0.129 ratio.
The bound/input enrichment of `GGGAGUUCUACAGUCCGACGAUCGUGCCCUUCUCGCUGCUCCUGCGGGGCCCCAGCUGGGCAUUCCGGGACUGGUACCCUGCACACAGCCGCCUCUUCGAUCAAGCUUUCGGGGUGCCCCGGUUGCCCGAUGAGUGGUCGCAGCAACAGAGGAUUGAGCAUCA` is reported as 0.0793 ratio.
`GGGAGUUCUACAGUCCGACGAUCCAGGGCAUCAUCUCUCGAGCUGUUAAACACCUGUUCAAGAGUAUUGAUGAGAAAAAGACCUCAGCGAUUAAAAACGGGCUGCCCCCUCCUGAAUUCAAAGUGAAUGCCCAGUUCCUAGAGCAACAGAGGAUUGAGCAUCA` gave a bound/input enrichment of 0.335 ratio.

Sample 2
Target: Histone acetyltransferase KAT6A, winged helix 2, GST fusion (KAT6A, Homo sapiens, UniProt Q92794, residues 85-181)
Method: protein binding microarray
Form: double-stranded DNA, one strand shown
Medium: in vitro
Concentration: not given
Notes: 8-mer, flanks averaged, mean of 2 arrays, mostly near background
Baseline: not given
Reading: higher = stronger binding
Construct (chain): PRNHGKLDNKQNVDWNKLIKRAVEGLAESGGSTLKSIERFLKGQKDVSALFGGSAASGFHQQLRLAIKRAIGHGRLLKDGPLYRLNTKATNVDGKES
With `GATGGTCA` the E-score was 0.0734.
With `GGAGAGAC` the E-score was 0.0186.
With `ATCAATAG` the E-score was -0.0278.
The E-score of `ACTGTGGC` is reported as -0.108.
For `CTTCTGCA`, the E-score was 0.164.
`CAGTAGCG` gave an E-score of 0.0993.
For `CAAAGCGA`, the E-score was 0.129.
`CCGAGCAA` gave an E-score of 0.0151.
For `TAAGTTGA`, the E-score was 0.134.
The E-score of `ATTAGCTC` is reported as 0.125.
For `GATATTGA`, the E-score was -0.0754.
With `CATCGTCA` the E-score was 0.114.
For `AGCATTGA`, the E-score was -0.0225.
`ATGGGCGC` gave an E-score of 0.0166.

Sample 3
Target: Phosphate system positive regulatory protein PHO4, full length, GST-tagged (PHO4, Saccharomyces cerevisiae, UniProt P07270, residues 1-312)
Method: competition protein-binding microarray
Form: double-stranded DNA, one strand shown
Medium: in vitro
Concentration: 2 µM
Notes: whole 60-bp probe, lowest competitor level
Together with: Cbf1 competitor, 0.05 µM
Reading: higher = stronger binding
Construct (chain): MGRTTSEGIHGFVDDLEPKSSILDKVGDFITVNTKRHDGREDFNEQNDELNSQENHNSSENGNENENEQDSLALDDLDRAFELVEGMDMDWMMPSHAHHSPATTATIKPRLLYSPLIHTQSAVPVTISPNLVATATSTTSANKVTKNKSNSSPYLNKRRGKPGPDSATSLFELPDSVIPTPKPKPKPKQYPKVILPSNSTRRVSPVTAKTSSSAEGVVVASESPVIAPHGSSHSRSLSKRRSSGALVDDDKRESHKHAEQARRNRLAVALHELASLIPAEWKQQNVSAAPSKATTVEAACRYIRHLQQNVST
For `TGCAGGTAAGTGACTCACATGCTTTGAAAAGTTCCTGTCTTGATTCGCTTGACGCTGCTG`, the fluorescence intensity was 8210 a.u.
For `GAATCTCCGCATATACATGTGGTCGGCATCGTTGTCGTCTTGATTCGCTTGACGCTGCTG`, the fluorescence intensity was 10800 a.u.
With `CTTCTGTAAATTTTTCACGTGCGATGACGCGCCCCGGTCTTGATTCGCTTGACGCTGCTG` the fluorescence intensity was 14800 a.u.
`ACCTAACCGGTGTCCCACGTGTTTCACGAAGGGCGCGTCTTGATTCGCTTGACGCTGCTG` gave a fluorescence intensity of 21100 a.u.
`CTTCTGTAAATTTGCGGTGTGGGTGGACGCGCCCCGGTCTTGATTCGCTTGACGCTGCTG` gave a fluorescence intensity of 4590 a.u.
For `TGGAGAAAGATTCACCACGTTCACTCAAGATCTTCAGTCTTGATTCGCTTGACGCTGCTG`, the fluorescence intensity was 12400 a.u.
With `CTAACGAAGGTTTGTCACGAGACTTACAAGCCAAGTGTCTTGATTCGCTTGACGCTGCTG` the fluorescence intensity was 6470 a.u.
`TGCGCAACAACTTGCCACGTGTTTTTATGTCTAGAAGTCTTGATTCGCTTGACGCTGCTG` gave a fluorescence intensity of 16600 a.u.

Other studies, line by line
`PhoQ, residues 284 288 289 292 302 303 TLMATV` has a fold induction of 18.2 (PhoP, residues 12 14 15 18 19 GHCSL (Escherichia coli, UniProt P23836); Sort-seq, refers to: YFP reporter; E. coli; PhoQ-PhoP variant library, together with: 10 µM Mg2+; baseline: high Mg2+ state, higher = stronger signaling).

Repeated from above (sample 1):
`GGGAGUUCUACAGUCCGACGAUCGGACAUCUGUCAAAUUGUUAUGUUCCUGUGAAACAAGUGAACACUCUGAUACACUUCAUCUGCUUGUACAUUUAACUGAUAGAGAAAUGUAAAUAUGUUAAUCCAAGCAAUGUGUCACUUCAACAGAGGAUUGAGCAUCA` has a bound/input enrichment of 0.343 ratio.
For `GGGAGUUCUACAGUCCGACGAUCUUCAAAGAAAAGGGCAGCUGUGUCAUUUCAUAAGUAACUCUGGGGGAGGGAAAUUCUGUUCUUUUGUUUAAUUUUCCCCCAGAUAAAGCCAAAGUGUGUGUUGAAGAACUGAGAAAAAAUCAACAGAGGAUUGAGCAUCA`, the bound/input enrichment was 0.183 ratio.
For `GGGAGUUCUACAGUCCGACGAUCGAGUCGAGCAAACUUGAAACAAUUCGUUAUCUUGCAGCCUCAGUGUUCACUUGCUUGGCGAUAGCAUUGGGGUUUUAUAGGUUCUGGGGAAGUAGUAGACGAUGAUGUCCUGCUGUGUGCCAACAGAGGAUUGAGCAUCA`, the bound/input enrichment was 0.718 ratio.
